# Published values from different studies.
# The chains behind the UniProt entries cited, without tags or fusion partners.
# UniProt P28222, whole entry: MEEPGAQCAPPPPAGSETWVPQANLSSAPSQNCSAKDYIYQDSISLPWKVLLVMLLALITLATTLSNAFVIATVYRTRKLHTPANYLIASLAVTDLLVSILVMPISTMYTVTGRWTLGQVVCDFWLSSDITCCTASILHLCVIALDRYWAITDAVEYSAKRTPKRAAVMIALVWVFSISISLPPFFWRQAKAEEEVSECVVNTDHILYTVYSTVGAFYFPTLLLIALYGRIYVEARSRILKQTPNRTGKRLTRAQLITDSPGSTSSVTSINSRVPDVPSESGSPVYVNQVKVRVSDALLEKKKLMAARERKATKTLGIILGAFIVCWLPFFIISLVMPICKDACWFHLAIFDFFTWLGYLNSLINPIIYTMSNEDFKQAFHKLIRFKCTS
# UniProt Q16832, whole entry, looked up: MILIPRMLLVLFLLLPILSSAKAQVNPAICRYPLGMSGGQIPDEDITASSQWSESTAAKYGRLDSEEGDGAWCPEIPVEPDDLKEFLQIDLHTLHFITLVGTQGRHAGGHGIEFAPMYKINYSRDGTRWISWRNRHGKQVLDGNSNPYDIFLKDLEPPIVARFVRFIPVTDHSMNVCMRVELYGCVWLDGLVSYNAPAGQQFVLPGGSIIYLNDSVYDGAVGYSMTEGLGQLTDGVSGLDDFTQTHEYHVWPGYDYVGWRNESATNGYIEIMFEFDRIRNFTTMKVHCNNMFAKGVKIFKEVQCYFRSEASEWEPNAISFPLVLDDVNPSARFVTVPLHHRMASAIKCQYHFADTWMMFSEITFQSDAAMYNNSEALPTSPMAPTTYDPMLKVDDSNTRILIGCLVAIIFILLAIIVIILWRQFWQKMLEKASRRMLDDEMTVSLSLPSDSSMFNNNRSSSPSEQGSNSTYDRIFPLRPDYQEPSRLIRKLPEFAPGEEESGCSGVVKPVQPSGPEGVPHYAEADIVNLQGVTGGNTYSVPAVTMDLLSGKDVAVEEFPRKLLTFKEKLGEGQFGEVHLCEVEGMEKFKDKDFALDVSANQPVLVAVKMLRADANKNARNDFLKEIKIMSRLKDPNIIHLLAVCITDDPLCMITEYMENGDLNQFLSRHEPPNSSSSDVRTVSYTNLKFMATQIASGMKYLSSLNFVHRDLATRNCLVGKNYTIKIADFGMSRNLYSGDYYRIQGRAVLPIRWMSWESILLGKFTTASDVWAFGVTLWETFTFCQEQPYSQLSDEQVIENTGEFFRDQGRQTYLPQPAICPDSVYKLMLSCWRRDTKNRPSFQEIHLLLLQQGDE
# Compare with care: the assays were run in different laboratories.
SMILES,target or system,assay,system,conditions,scale,endpoint,value
O=c1ccc2nc3ccc(OCCCCF)cc3oc-2c1,Mycobacterium tuberculosis,,mc2 6206 PA-824-resistant ddn mutant,7 days,,MIC90,17 µM
CCCN1CCN(c2ccc3c(c2)C2CC3CCN2C(=O)OCc2ccccc2)CC1 (stereo not shown),"HTR1B (Homo sapiens, UniProt P28222)","binding, radioligand binding",,,,Ki,> 10 µM
O=C(O)COc1ccc2nc3ccc(=O)cc-3oc2c1,Mycobacterium tuberculosis,,mc2 6206 clofazimine-resistant fbiC mutant,7 days,,MIC90,> 256 µM
O=[N+]([O-])c1cn2c(n1)OC[C@@H](OCc1ccc(OC(F)(F)F)cc1)C2,Mycobacterium bovis,,"BCG Tac^r10.1, thyA H147Y missense",TA-C-resistant thyA mutant,,MIC50,0.2 µM
CC#C/C(=N\OC[C@H]1COCCN1)c1ccc2ncnc(Nc3ccc(OCc4cccc(F)c4)c(Cl)c3)c2c1,"DDR2 (Homo sapiens, UniProt Q16832)",kinase activity,,10 µM,,inhibition,0%
CO[C@H]1/C=C/O[C@@]2(C)Oc3c(C)c(O)c4c(O)c(c(/C=N/N5CCN(C)CC5)c(O)c4c3C2=O)NC(=O)/C(C)=C\C=C\[C@H](C)[C@H](O)[C@@H](C)[C@@H](O)[C@@H](C)[C@H](OC(C)=O)[C@@H]1C,Mycobacterium bovis,,"BCG Tac^r10.2, thyA mutant",TA-C-resistant thyA mutant,,MIC50,0.0016 µM
CC1(C)CCC(Cc2cc(O)c(-c3ccccc3)c(=O)[nH]2)CC1,Mycobacterium tuberculosis,bactericidal activity,replicating,,,rapid killing concentration,> 0.2 µM
CCC(C)C1NC(=O)/C(=C(/C)O)C1=O (stereo not shown),Arabidopsis thaliana,"apo-pHusion imaging, measured: apoplastic pH",elongating root cells,10 µM,,time to pH increase,2 to 4 min
Nc1ccc(C(=O)O)c(O)c1,Mycobacterium bovis,,"BCG Tac^r7.1, thyA A148E missense",TA-C-resistant thyA mutant,,MIC50,> 100 µM
CSc1nc(Cl)cc(Sc2nnc(-c3cc(C(F)(F)F)cc(C(F)(F)F)c3)[nH]2)n1,Pseudomonas aeruginosa,,MDR clinical isolate,with: NAB7061 4 µg/mL,,MIC,5.9 µg/mL
CCN1CCN(Cc2ccc(NC(=O)c3ccc(C)c(/C=C/c4cnc5[nH]ccc5c4OC)c3)cc2C(F)(F)F)CC1,human FLT3 ITD,"kinase-CDC37 interaction, inhibitor",human cells,5 µM,baseline: vehicle,log2 fold change,-1.27
O=[N+]([O-])c1ccc(N2CCN(c3ccc([N+](=O)[O-])cc3[N+](=O)[O-])CC2)c([N+](=O)[O-])c1,Pseudomonas aeruginosa,,multidrug-resistant clinical isolate,,,MIC,> 500 µg/mL
CC(C)COc1ccc2nc3ccc(=O)cc-3oc2c1,Mycobacterium tuberculosis,,mc2 6206 bedaquiline-resistant MmpL5 regulator mutant,7 days,,MIC90,9.9 µM

# Some of these lines once more:
SMILES,target or system,assay,system,conditions,scale,endpoint,value
CSc1nc(Cl)cc(Sc2nnc(-c3cc(C(F)(F)F)cc(C(F)(F)F)c3)[nH]2)n1,Pseudomonas aeruginosa,,MDR clinical isolate,with: NAB7061 4 µg/mL,,MIC,5.9 µg/mL
